Assay results collected from several papers.
Protocols differ between the studies behind these lines. ± marks the error that the study gave.
Cell line: HCT-116

Oc1c(Cl)cc(Cl)cc1/C=N/Nc1ncnc2sc3c(c12)CCCC3
IC50 (cell growth or viability, CCK-8; 48 h): 0.58 µM

CCC(=[N][Pt-2]1([Cl])[NH2+]CCC[NH2+]1)N(C)CCNc1c2ccccc2nc2ccccc12.O=[N+]([O-])O.O=[N+]([O-])O
IC50 (cell growth or viability, MTS; 72 h): 2.52 µM

COc1cc(-n2cc3cc(F)cc(C(N)=O)c3n2)cc(Cl)c1C1CC(O)(CCO)CC2CCCC21 (stereo not shown)
IC50 (cell growth or viability, MTT; 72 h): 0.14 µM

CCOC(=O)/C=C1\S/C(=N\N=C\c2cccc3cc4ccccc4nc23)N(c2ccc([N+](=O)[O-])cc2)C1=O
IC50 (cell growth or viability, MTT; 48 h): > 50 µM

O=C1/C(=N\c2ccc(Cl)cc2Br)c2ccccc2N1Cc1cccc(Cl)c1 (mixture of isomers)
IC50 (cell growth or viability, MTT; 48 h): 1.18 µM

COc1ccc(N2C(=O)CS/C2=N\N=C\c2cccc3cc4ccccc4nc23)cc1
IC50 (cell growth or viability, MTT; 48 h): 39.8 µM

CCNC(=S)NN=Cc1c2ccccc2cc2ccccc12.Cc1ccc(C(C)C)cc1.[Cl-].[Cl-].[Ru+2]
IC50 (cytotoxicity, MTS; 24 h): 290 ± 10 µM

COc1ccc(CN2C3(NC(c4ccc(OC)cc4)C24C(=O)Nc2ccccc24)C(=O)Nc2ccccc23)cc1 (stereo not shown)
IC50 (cell growth or viability, MTT; 48 h): 63.1 µM

CCOC(=O)/C=C1\S/C(=N\N=C\c2cccc3cc4ccccc4nc23)N(CC(C)C)C1=O
IC50 (cell growth or viability, MTT; 48 h): 46.6 µM

O=[N+]([O-])c1ccc(O)c(/C=N/Nc2ccccc2)c1
IC50 (cell growth or viability, MTT; 24 h): 15.4 µM

O=C1Nc2ccccc2C12NC(c1ccc(F)cc1)C1(C(=O)Nc3ccccc31)N2Cc1ccc(F)cc1 (stereo not shown)
IC50 (cell growth or viability, MTT; 48 h): 28.8 µM

Cc1nc(Nc2ccc3c(c2)/C(=C/c2ccccc2Cl)C(=O)N3C)c2ccccc2n1
IC50 (cell growth or viability, MTT): 8.82 µM

CCOC(=O)/C=C1\S/C(=N\N=C\c2cccc3cc4ccccc4nc23)N(c2ccccc2)C1=O
IC50 (cell growth or viability, MTT; 48 h): 28.4 µM

CCCCCCCCCCCCCCCCCC(=O)[O][Pt-2]1([OH])([Cl])([NH+]=C(CC)N(C)CCNc2c3ccccc3[nH+]c3ccccc23)[NH]CCC[NH]1.O=[N+]([O-])O.O=[N+]([O-])O
IC50 (cell growth or viability, MTS; 72 h): 0.11 µM

O=C1/C(=N\c2cccc(Cl)c2)c2ccccc2N1Cc1ccccc1
IC50 (cell growth or viability, MTT; 48 h): 1.08 µM

CC(C)CN1C(=O)CS/C1=N\N=C\c1cccc2cc3ccccc3nc12
IC50 (cell growth or viability, MTT; 48 h): > 50 µM

[BH3-][P+]1(c2ccccc2)CCCCC1
IC50 (cell viability, MTT; 72 h): 49.1 ± 0.12 µM

CCc1ccc(/N=C2\C(=O)N(Cc3ccc([N+](=O)[O-])cc3)c3ccccc32)cc1
IC50 (cell growth or viability, MTT; 48 h): 6.85 µM

CC(C)c1ccc(N(C)c2ccc3c(c2)OCC[C@H]3CNc2cnccc2C(=O)O)cc1
IC50 (cell growth or viability, ATP luminescence; 7 days): 0.0204 µM

COc1cccc(N2C(=O)CS/C2=N\N=C\c2cccc3cc4ccccc4nc23)c1
IC50 (cell growth or viability, MTT; 48 h): 33.3 µM

[BH3-][P+]1(C2CCCCC2)CCCCC1
IC50 (cell growth or viability, MTT; 72 h): 52.8 µM

O=C1/C(=N\c2ccc(Cl)cc2Br)c2ccccc2N1C(=O)c1ccccc1
IC50 (cell growth or viability, MTT; 48 h): > 100 µM

[BH3-][P+]1(c2ccccc2)CCC(=O)CC1
IC50 (cell growth or viability, MTT; 72 h): > 100 µM

CN1CCC(N[C@@H]2CCc3[nH]c4c(C(N)=O)ccc(-c5ccccc5Cl)c4c3C2)CC1
IC50 (cell growth or viability): 0.00012 µM

CCC(=[NH+][Pt-2]1([Cl])([O]C(C)=O)([O]C(C)=O)[NH]CCC[NH]1)N(C)CCNc1c2ccccc2[nH+]c2ccccc12.O=[N+]([O-])O.O=[N+]([O-])O
IC50 (cell growth or viability, MTS; 72 h): 7.85 µM

COC(=O)c1cc(NC2=NC(=O)C(=Cc3ccc(N(C)C)cc3)S2)ccc1OC(C)=O
IC50 (cell growth or viability, SRB): 0.44 µM

O=C1/C(=N\c2ccc(Cl)cc2Br)c2ccccc2N1Cc1ccccc1 (mixture of isomers)
IC50 (cell growth or viability, MTT; 48 h): 16.7 µM

Cc1ccccc1/C=C/C(=O)N[C@@H](CO)C(=O)N[C@H](C(=O)N[C@H](Cc1ccccc1)C(=O)O)[C@@H](C)O
IC50: > 20 µM

CC(=O)OC[C@H]1O[C@@H](Oc2ccc(C#[C][Pt+])cc2)[C@H](OC(C)=O)[C@@H](OC(C)=O)[C@@H]1OC(C)=O.O=S(=O)([O-])C(F)(F)F.c1ccc(-c2cccc(-c3ccccn3)n2)nc1
IC50 (cell growth or viability; 48 h): 90.7 µM

[BH3-][P@+]1(c2ccccc2)CC[C@@H](O)CC1
IC50 (cell growth or viability, MTT; 72 h): > 100 µM

CCOC(=O)/C=C1\S/C(=N\N=C\c2cccc3cc4ccccc4nc23)N(c2ccc(F)cc2)C1=O
IC50 (cell growth or viability, MTT; 48 h): > 50 µM

O=C(CCc1ccco1)N1C(=O)C2(NC(c3ccc(F)cc3)C3(C(=O)Nc4ccccc43)N2Cc2ccc(F)cc2)c2ccccc21 (stereo not shown)
IC50 (cell growth or viability, MTT; 48 h): 66.3 µM

CCOC(=O)/C=C1\S/C(=N\N=C\c2cccc3cc4ccccc4nc23)N(c2cccc(OC)c2)C1=O
IC50 (cell growth or viability, MTT; 48 h): > 50 µM

NC(=O)c1ccc(-c2ccccc2Cl)c2c3c([nH]c12)CC[C@@H](N)C3
IC50 (cell growth or viability): 0.00242 µM

Cc1nc2ccc(Br)cc2c(=O)n1N
IC50 (cytotoxicity, LDH release; 24 h, 50% viability reduction): 758 ± 19.5 µM

COc1ccccc1/C=C1\C(=O)N(C)c2ccc(N(C)c3nc(C)nc4ccccc34)cc21
IC50 (cell growth or viability, MTT): 0.53 µM

O=[P@]1(c2ccccc2)CC[C@H](O)CC1
IC50 (cell growth or viability, MTT; 72 h): > 100 µM

Cc1nc(Nc2ccc3c(c2)/C(=C/c2ccccc2)C(=O)N3)c2ccccc2n1
IC50 (cell growth or viability, MTT): 24.2 µM

Cc1cc(C)[nH]n1
IC50 (cell growth, MTT; 24 h): > 800 µM

Cc1nc(Nc2ccc3c(c2)/C(=C/c2cn(C)c4ccccc24)C(=O)N3C)c2ccccc2n1
IC50 (cell growth or viability, MTT): 1.88 µM

CC(C)=CC1OC(C)(C)C2C=C3C(=O)C(Cl)=CC(O)C3C3C(O)C4OC4C(=O)C132 (stereo not shown)
IC50 (cell growth or viability, MTS): 1.31 µM

Cc1nc(Nc2ccc3c(c2)/C(=C/c2c[nH]c4ccccc24)C(=O)N3)c2ccccc2n1
IC50 (cell growth or viability, MTT): 2.34 µM

Cc1cc(C)n(CO)n1
IC50 (cell growth or viability, MTT; 24 h): 49.8 µM

Some of these lines once more:
CCC(=[NH+][Pt-2]1([Cl])([O]C(C)=O)([O]C(C)=O)[NH]CCC[NH]1)N(C)CCNc1c2ccccc2[nH+]c2ccccc12.O=[N+]([O-])O.O=[N+]([O-])O
IC50 (cell growth or viability, MTS; 72 h): 7.85 µM

COc1ccccc1/C=C1\C(=O)N(C)c2ccc(N(C)c3nc(C)nc4ccccc34)cc21
IC50 (cell growth or viability, MTT): 0.53 µM

NC(=O)c1ccc(-c2ccccc2Cl)c2c3c([nH]c12)CC[C@@H](N)C3
IC50 (cell growth or viability): 0.00242 µM

Cc1cc(C)[nH]n1
IC50 (cell growth, MTT; 24 h): > 800 µM

CN1CCC(N[C@@H]2CCc3[nH]c4c(C(N)=O)ccc(-c5ccccc5Cl)c4c3C2)CC1
IC50 (cell growth or viability): 0.00012 µM

[BH3-][P+]1(c2ccccc2)CCCCC1
IC50 (cell viability, MTT; 72 h): 49.1 ± 0.12 µM
